Measured values gathered from unrelated publications.
A part holds a random share of what one study measured. “And” joins repeats or separate records; there may be more than shown.
UniProt O60911, sequence (whole entry, looked up): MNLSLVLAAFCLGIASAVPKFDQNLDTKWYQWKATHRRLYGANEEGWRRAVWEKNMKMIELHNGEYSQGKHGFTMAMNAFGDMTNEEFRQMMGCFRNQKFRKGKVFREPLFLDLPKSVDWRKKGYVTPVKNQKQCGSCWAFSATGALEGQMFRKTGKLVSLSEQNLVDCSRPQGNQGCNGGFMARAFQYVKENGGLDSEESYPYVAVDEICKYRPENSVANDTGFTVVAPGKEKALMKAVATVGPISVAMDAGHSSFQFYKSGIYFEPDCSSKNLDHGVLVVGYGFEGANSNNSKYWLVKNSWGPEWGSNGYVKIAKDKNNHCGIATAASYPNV
UniProt P41143, sequence (whole entry, looked up): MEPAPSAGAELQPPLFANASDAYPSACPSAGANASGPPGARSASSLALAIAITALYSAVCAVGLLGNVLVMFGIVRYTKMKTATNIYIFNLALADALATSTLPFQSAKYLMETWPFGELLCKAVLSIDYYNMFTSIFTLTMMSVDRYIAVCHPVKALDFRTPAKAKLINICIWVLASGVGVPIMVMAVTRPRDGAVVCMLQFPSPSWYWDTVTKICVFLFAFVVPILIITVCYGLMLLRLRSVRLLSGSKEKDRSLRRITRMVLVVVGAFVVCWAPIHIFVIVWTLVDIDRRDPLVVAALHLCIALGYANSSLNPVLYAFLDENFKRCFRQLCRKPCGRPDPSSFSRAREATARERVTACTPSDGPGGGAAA
UniProt P21918, sequence (whole entry, looked up): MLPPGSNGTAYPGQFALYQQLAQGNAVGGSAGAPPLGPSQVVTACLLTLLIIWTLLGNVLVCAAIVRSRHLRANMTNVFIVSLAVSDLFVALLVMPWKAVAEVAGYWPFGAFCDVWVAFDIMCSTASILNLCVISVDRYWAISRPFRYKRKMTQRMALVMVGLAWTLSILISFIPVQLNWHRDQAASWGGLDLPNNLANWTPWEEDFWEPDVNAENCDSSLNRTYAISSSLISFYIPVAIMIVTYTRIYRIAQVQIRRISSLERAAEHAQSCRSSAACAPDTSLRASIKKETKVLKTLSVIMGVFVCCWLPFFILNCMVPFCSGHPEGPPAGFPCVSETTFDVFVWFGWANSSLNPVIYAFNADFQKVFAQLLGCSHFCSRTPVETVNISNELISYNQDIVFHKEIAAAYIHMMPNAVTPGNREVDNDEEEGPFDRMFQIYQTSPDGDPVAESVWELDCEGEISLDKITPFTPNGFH
UniProt P25774, sequence (whole entry, looked up): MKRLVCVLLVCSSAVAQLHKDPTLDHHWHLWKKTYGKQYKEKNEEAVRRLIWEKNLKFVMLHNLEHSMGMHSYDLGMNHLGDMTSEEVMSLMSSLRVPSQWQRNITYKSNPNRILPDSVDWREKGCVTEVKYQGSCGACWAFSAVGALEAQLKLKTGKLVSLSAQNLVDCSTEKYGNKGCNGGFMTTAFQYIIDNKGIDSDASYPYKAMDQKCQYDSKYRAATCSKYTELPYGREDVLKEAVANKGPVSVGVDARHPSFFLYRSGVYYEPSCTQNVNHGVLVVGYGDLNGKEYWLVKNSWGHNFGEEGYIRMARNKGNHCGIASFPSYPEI
UniProt P35372, sequence (whole entry, looked up): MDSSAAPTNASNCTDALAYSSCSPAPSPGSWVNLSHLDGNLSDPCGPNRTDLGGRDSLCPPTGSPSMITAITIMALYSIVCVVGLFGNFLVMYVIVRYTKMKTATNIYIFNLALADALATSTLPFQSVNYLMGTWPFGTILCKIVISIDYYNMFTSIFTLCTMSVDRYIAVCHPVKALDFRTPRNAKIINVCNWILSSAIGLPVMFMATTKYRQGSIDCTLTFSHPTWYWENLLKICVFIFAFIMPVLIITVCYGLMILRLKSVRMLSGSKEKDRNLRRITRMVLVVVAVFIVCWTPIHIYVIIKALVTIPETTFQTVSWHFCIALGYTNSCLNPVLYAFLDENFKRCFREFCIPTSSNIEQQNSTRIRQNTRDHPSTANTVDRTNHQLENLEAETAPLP
UniProt P00784, sequence (whole entry, looked up): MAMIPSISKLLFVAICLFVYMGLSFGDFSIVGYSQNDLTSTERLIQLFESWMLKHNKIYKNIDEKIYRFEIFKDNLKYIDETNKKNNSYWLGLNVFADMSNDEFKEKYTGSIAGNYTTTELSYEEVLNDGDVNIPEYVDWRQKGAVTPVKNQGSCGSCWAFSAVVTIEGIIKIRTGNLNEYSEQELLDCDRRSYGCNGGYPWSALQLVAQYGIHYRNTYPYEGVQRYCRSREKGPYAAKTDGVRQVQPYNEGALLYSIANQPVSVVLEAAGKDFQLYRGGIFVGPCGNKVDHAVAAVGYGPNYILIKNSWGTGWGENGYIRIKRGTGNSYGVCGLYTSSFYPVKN
UniProt P07384, sequence (whole entry, looked up): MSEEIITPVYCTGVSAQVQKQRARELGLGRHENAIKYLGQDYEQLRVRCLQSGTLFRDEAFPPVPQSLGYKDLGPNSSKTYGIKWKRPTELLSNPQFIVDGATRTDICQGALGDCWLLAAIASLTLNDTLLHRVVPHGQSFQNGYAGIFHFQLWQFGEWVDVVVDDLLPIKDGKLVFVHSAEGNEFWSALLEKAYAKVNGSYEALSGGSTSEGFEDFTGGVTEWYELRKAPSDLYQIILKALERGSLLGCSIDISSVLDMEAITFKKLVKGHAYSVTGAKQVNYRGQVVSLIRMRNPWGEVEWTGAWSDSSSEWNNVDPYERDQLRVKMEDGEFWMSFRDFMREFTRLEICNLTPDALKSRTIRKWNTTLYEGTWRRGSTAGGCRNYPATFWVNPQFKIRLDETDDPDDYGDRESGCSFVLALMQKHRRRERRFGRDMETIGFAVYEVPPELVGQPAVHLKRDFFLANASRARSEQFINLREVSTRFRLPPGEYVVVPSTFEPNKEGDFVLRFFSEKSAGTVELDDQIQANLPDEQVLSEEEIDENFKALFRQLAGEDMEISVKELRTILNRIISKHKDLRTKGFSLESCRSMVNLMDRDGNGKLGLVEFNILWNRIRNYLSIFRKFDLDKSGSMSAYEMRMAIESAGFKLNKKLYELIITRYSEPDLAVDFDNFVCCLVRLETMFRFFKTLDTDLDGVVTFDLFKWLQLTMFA
UniProt P07711, sequence (whole entry, looked up): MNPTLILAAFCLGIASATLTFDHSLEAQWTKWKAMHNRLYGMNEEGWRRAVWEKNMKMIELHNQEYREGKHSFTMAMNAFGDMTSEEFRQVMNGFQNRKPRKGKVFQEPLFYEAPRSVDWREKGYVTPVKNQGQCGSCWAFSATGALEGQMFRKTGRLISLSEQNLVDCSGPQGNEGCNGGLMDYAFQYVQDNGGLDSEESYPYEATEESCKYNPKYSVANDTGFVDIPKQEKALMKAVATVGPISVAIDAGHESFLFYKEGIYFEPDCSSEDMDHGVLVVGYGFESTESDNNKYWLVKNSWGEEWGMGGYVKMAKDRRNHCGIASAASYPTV
UniProt P11229, sequence (whole entry, looked up): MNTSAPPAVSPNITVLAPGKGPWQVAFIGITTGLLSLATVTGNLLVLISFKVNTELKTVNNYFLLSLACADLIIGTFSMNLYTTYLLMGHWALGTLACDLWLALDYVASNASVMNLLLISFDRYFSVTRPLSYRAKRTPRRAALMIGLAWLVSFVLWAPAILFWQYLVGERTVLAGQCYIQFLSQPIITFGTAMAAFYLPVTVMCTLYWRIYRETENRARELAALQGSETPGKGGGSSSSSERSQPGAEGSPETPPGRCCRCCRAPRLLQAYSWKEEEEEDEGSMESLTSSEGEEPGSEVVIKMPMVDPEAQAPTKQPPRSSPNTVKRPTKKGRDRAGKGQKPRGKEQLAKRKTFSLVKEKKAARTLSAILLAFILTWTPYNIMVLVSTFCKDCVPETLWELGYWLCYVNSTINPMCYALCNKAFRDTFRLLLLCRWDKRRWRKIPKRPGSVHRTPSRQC
UniProt P41145, sequence (whole entry, looked up): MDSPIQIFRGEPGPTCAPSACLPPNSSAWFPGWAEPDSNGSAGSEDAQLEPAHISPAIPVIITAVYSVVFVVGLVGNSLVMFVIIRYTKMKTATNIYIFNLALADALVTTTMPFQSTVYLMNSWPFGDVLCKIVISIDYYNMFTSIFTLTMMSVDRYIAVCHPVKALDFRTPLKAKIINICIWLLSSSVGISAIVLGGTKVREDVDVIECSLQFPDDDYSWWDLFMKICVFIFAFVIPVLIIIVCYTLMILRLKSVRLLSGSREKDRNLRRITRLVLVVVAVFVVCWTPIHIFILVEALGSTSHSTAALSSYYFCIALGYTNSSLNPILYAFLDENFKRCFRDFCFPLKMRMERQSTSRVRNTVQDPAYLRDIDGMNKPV
UniProt P20309, sequence (whole entry, looked up): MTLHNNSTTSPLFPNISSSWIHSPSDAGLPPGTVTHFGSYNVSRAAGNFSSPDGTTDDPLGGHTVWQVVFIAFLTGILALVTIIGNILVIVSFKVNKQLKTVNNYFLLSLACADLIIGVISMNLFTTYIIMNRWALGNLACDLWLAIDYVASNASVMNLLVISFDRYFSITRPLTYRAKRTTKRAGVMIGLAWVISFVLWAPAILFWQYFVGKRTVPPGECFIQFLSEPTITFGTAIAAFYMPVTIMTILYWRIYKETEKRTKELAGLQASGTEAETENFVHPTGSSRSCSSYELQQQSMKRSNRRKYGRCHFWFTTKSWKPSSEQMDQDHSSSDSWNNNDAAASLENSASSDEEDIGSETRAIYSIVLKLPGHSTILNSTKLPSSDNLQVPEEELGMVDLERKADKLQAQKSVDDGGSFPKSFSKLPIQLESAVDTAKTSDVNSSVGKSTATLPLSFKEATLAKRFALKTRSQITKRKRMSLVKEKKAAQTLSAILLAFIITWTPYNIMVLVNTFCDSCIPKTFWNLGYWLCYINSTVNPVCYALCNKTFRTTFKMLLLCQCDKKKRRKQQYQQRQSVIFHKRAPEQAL

Sample 1 — organism: Sarcocystis neurona; effect on: parasite growth; tested at: 10 µM; time: 96 h; setting: second screen; reference: untreated
| Structure (SMILES) | log2 fold change |
| --- | --- |
| c1ccc2c(c1)Nc1ccccc1S2 | 0.7 |
| C[C@]12CC[C@H](O)CC1=CC[C@@H]1[C@@H]2CC[C@@]2(C)[C@H]1CC[C@]2(C)O | 0.16 |
| CN1CCN(C(=O)O[C@H]2c3nccnc3C(=O)N2c2ccc(Cl)cn2)CC1 | 0.26 |
| FC(F)(F)c1cccc(N2CCNCC2)c1 | 0.54 |
| OCCN1CCN(CCCN2c3ccccc3Sc3ccc(Cl)cc32)CC1 | -2.69 |
| C[C@H]1[C@H](OC(=O)CCC(=O)O)O[C@@H]2O[C@@]3(C)CC[C@H]4[C@H](C)CC[C@@H]1[C@@]24OO3 | -2.07 |
| CN1C(=O)COc2c(C(=O)NC3CN4CCC3CC4)cc(Cl)cc21 (centres unmarked) | 0.18 |

Sample 2 — cell line: mouse MPNST tumor cells; technique: high-content immunofluorescence imaging; measured: nuclear SOX9; tested at: 10 µM; time: 12 h; setting: mean of 2 replicates; reference: DMSO control; reading: higher = more nuclear SOX9
| Structure (SMILES) | nuclear SOX9 intensity |
| --- | --- |
| CO[C@]12C[C@@H](COC(=O)c3cncc(Br)c3)CN(C)[C@@H]1Cc1cn(C)c3cccc2c13 | 130 % of DMSO |
| Nc1ccc(Oc2ccc(C(c3ccc(Oc4ccc(N)cc4)cc3)(C(F)(F)F)C(F)(F)F)cc2)cc1 | 150 % of DMSO |
| NC(=O)C[S@@+]([O-])C(c1ccccc1)c1ccccc1 | 98.4 % of DMSO |
| N#Cc1cn([C@@H]2O[C@H](CO)[C@@H](O)[C@H]2O)c2ncnc(N)c12 | 59.1 % of DMSO |
| O=C(N[C@H]1CN2CCC1CC2)c1cc2ccoc2cn1 | 99.3 % of DMSO |
| Oc1ccc2c3c1O[C@H]1c4[nH]c5c(c4C[C@@]4(O)[C@@H](C2)N(CC2CC2)CC[C@]314)C[C@@]1(O)[C@H]2Cc3ccc(O)c4c3[C@@]1(CCN2CC1CC1)[C@H]5O4 | 93.1 % of DMSO |

Sample 3 — cell line: HEK-293T; organism: VSV pseudotyped with VSV-G; tested at: 10 µM; time: 16 h
| Compound | pseudovirus infection |
| --- | --- |
| C[N+]1(C)CCC(OC(=O)C(O)(c2ccccc2)C2CCCC2)C1 (centres unmarked) | 102% |
| CN1CCC[C@H]1c1cccnc1 | 110% |
| CN(C)CCC=C1c2ccccc2C=Cc2ccccc21 | 83.3% |
| NCCCC(O)(P(=O)(O)O)P(=O)(O)O | 137% |
| CN(C)CCOC(c1ccccc1)c1ccccc1 | 99.2% |
| C[C@H]1O[C@@H](O[C@H]2[C@@H](O)C[C@H](O[C@H]3[C@@H](O)C[C@H](O[C@H]4CC[C@@]5(C)[C@H](CC[C@@H]6[C@@H]5C[C@@H](O)[C@]5(C)[C@@H](C7=CC(=O)OC7)CC[C@]65O)C4)O[C@@H]3C)O[C@@H]2C)C[C@H](O)[C@@H]1O | -0.22% |
| Nc1nc2ccc(OC(F)(F)F)cc2s1 | 91.2% |
| Clc1ccc2nsnc2c1NC1=NCCN1 | 71.7% |
| OC(Cn1cncn1)(Cn1cncn1)c1ccc(F)cc1F | 100% |
| CC(C)NCC(O)COc1ccc(CC(N)=O)cc1 (centres unmarked) | 118% |
| CC1=C(C(=O)O)N2C(=O)[C@@H](NC(=O)[C@H](N)c3ccccc3)[C@H]2SC1 | 91.9% |
| CN(C)C(=O)C(CCN1CCC(O)(c2ccc(Cl)cc2)CC1)(c1ccccc1)c1ccccc1 | 117% |
| Nc1ccc(S(N)(=O)=O)cc1 | 140% |
| Oc1ccc(O)cc1 | 93.5% |
| CNCC[C@H](Oc1cccc2ccccc12)c1cccs1 | 109% |
| O=C(O)COCCN1CCN([C@H](c2ccccc2)c2ccc(Cl)cc2)CC1 | 87.7% |
| C[C@@H]1C[C@H]2[C@@H]3C[C@H](F)C4=CC(=O)C=C[C@]4(C)[C@@]3(F)[C@@H](O)C[C@]2(C)[C@@]1(O)C(=O)CO | 116% |
| N[C@@H](CCC(=O)N[C@@H](CS)C(=O)NCC(=O)O)C(=O)O | 101% |
| Cn1cnc([N+](=O)[O-])c1Sc1ncnc2nc[nH]c12 | 92.8% |
| CCN(CC)CCOC(=O)C1(C2CCCCC2)CCCCC1 | 77% |
| CN1[C@@H]2CC[C@H]1C[C@@H](OC(=O)C(CO)c1ccccc1)C2 (some centres unmarked) | 106% |
| CC(C)c1c(C(=O)Nc2ccccc2)c(-c2ccccc2)c(-c2ccc(F)cc2)n1CC[C@@H](O)C[C@@H](O)CC(=O)O | 162% |
| CNCCCC12CCC(c3ccccc31)c1ccccc12 | 120% |
| NC(N)=Nc1nc(CSCCC(N)=NS(N)(=O)=O)cs1 | 98.6% |
| COC(=O)[C@H](c1ccccc1Cl)N1CCc2sccc2C1 | 97.5% |

Sample 4 — effect on: cell-free assay; tested at: 10 µM
Compound: NS(=O)(=O)c1cc(NC(=O)C2(c3ccccc3Cl)CC2)ccc1Oc1cccc(Cl)c1
| target | inhibition |
| --- | --- |
| CHRM1 (Homo sapiens, UniProt P11229) | -3.55% |
| OPRD1 (Homo sapiens, UniProt P41143) | 41.6% |
| CHRM3 (Homo sapiens, UniProt P20309) | 17.9% |
| OPRM1 (Homo sapiens, UniProt P35372) | 40.2% |
| HTR2A (Homo sapiens, UniProt P28223) | 11.3% |
| DRD5 (Homo sapiens, UniProt P21918) | 20.8% |
| OPRK1 (Homo sapiens, UniProt P41145) | 21.2% |

Sample 5
Structure (SMILES): CC(C)C[C@H](NC(=O)[C@H]1O[C@@H]1C(=O)O)C(=O)NCCCCN=C(N)N
| target | IC50 [nM] |
| --- | --- |
| Cathepsin S (CTSS, Homo sapiens, UniProt P25774) | 3.25 |
| Cathepsin B (CTSB, Homo sapiens, UniProt P07858) | 9.07 |
| CAPN1 (Homo sapiens, UniProt P07384) | 16.4 |
| Papain (Carica papaya, UniProt P00784) | 0.434 |
| CTSC (Homo sapiens, UniProt P53634) | 563 |
| Procathepsin L (CTSL, Homo sapiens, UniProt P07711) | 12.6 |
| Cathepsin L2 (CTSV, Homo sapiens, UniProt O60911) | 9.17 |
| Pro-cathepsin H (Homo sapiens, UniProt P09668) | 76.3 |

Single results of other studies
| Compound | cell line | test | conditions | measurement | result |
| --- | --- | --- | --- | --- | --- |
| C[C@]12CC[C@H]3[C@@H](CCC4=CC(=O)CC[C@@]43C)[C@@H]1CC[C@@H]2OC(=O)CCc1ccccc1 | A-375 |  | 100 µM, 60 h | viability | 5.93% |
| CN[C@@H]1C[C@H]2O[C@@](C)([C@@H]1OC)n1c3ccccc3c3c4c(c5c6ccccc6n2c5c31)C(=O)NC4 | human CD34+ HSPC | EdU flow cytometry | 100 nM, 24 h | G2-M phase cells | 44.1% and 32% |
| O=C(O)c1nn(Cc2ccc(Cl)cc2Cl)c2ccccc12 | HaCaT |  | 100 µM, 60 h | viability | 124% |

For quick reference, copied from above (sample 3):
| Compound | pseudovirus infection |
| --- | --- |
| Clc1ccc2nsnc2c1NC1=NCCN1 | 71.7% |
| OC(Cn1cncn1)(Cn1cncn1)c1ccc(F)cc1F | 100% |
| CC(C)NCC(O)COc1ccc(CC(N)=O)cc1 (centres unmarked) | 118% |
| CC1=C(C(=O)O)N2C(=O)[C@@H](NC(=O)[C@H](N)c3ccccc3)[C@H]2SC1 | 91.9% |
| CN(C)C(=O)C(CCN1CCC(O)(c2ccc(Cl)cc2)CC1)(c1ccccc1)c1ccccc1 | 117% |
| Nc1ccc(S(N)(=O)=O)cc1 | 140% |
| Oc1ccc(O)cc1 | 93.5% |
| CNCC[C@H](Oc1cccc2ccccc12)c1cccs1 | 109% |
| O=C(O)COCCN1CCN([C@H](c2ccccc2)c2ccc(Cl)cc2)CC1 | 87.7% |
